Earlier results, collected from citations in different studies.
Each line is one published result; not all experiments were run side by side.

CC(NCCc1ccc(O)cc1)C(O)c1ccc(O)cc1 (centres unmarked)  Cmax (human, plasma; concentration not given, range of reported values): 14 to 154 nM
Cc1nnc(C(=O)NC(C)(C)c2nc(C(=O)NCc3ccc(F)cc3)c(O)c(=O)n2C)o1  Cmax (human, plasma total; 400 mg): 142 nM
C[C@]12C=CC(=O)C=C1CC[C@@H]1[C@@H]2C(=O)C[C@@]2(C)[C@H]1CC[C@]2(O)C(=O)CO  Cmax (human, plasma; concentration not given, range of reported values): 42 to 3700 nM
C[C@H](Cn1cnc2c(N)ncnc21)OCP(=O)(O)O  Cmax (human, plasma total; 300 mg): 1100 nM
CC1(C)CCC(CN2CCN(c3ccc(C(=O)NS(=O)(=O)c4ccc(NCC5CCOCC5)c([N+](=O)[O-])c4)c(Oc4cnc5[nH]ccc5c4)c3)CC2)=C(c2ccc(Cl)cc2)C1  Cmax (human; oral, 50 mg single dose): 200 ng/mL
Cc1cc(/C=C/C#N)cc(C)c1Nc1ccnc(Nc2ccc(C#N)cc2)n1  Cmax (human, plasma total; 150 mg): 3000 nM
CC(C)/N=c1\cc2n(-c3ccc(Cl)cc3)c3ccccc3nc-2cc1Nc1ccc(Cl)cc1  Cmax (human; 200 mg once daily): 861 nM
CCC[C@H](NC(=O)[C@@H]1[C@H]2CCC[C@H]2CN1C(=O)[C@@H](NC(=O)[C@@H](NC(=O)c1cnccn1)C1CCCCC1)C(C)(C)C)C(=O)C(=O)NC1CC1  Cmax (human patients, plasma; dose not given, single or steady-state dosing, together with: with co-medication): 5200 nM
C[C@H]1C[C@@H]2[C@H]([C@@H](O)C[C@@]3(C)[C@H]2CC[C@]3(O)C(=O)CO)[C@@]2(C)C=CC(=O)C=C12  Cmax (human, plasma; concentration not given, range of reported values): 61 to 2110 nM
O=C(O)CSc1nnc(Br)n1-c1ccc(C2CC2)c2ccccc12  Cmax (human, plasma total; 600 mg): 45000 nM
CC(C)(C)NC(=O)[C@@H]1C[C@@H]2CCCC[C@@H]2CN1C[C@@H](O)[C@H](Cc1ccccc1)NC(=O)[C@H](CC(N)=O)NC(=O)c1ccc2ccccc2n1  Cmax (human, plasma; concentration not given, range of reported values): 119 to 550000 nM
CN1C(=O)CC(=O)N(c2ccccc2)c2cc(Cl)ccc21  Cmax (human, plasma total; 40 mg): 4570 nM
CC(C)(C)OC(=O)N[C@H]1CCCCC/C=C\[C@@H]2C[C@@]2(C(=O)NS(=O)(=O)C2CC2)NC(=O)[C@@H]2C[C@@H](OC(=O)N3Cc4cccc(F)c4C3)CN2C1=O  Cmax (human patients, plasma; dose not given, single or steady-state dosing, together with: with co-medication): 3200 nM
O=c1n(CCCN2CCN(c3cccc(Cl)c3)CC2)nc2ccccn12  Cmax (human, plasma; concentration not given, range of reported values): 1570 to 2910 nM
N.N.[Cl][Pt][Cl]  Cmax (human patients; dose not given): ≤ 30000 nM
CCCC[C@H](NC(=O)[C@@H]1[C@@H]2[C@H](CN1C(=O)[C@@H](NC(=O)NC1(CS(=O)(=O)C(C)(C)C)CCCCC1)C(C)(C)C)C2(C)C)C(=O)C(=O)NC1CC1  Cmax (human patients, plasma; dose not given, single or steady-state dosing, together with: with co-medication): 1900 nM
N#Cc1ccccc1-c1cc(-c2ccccn2)cn(-c2ccccc2)c1=O  Cmax (human, plasma total; 6 mg): 846 nM
O=c1[nH]c2ccccc2n1CCCN1CCC(n2c(=O)[nH]c3cc(Cl)ccc32)CC1  Cmax (human, plasma; concentration not given, median of reported values): 41 nM
C=C[C@@H]1C[C@]1(NC(=O)[C@@H]1C[C@@H]2CN1C(=O)[C@H](C(C)(C)C)NC(=O)O[C@@H]1C[C@H]1CCCCCc1nc3ccc(OC)cc3nc1O2)C(=O)NS(=O)(=O)C1CC1  Cmax (human patients, plasma; dose not given, single or steady-state dosing, together with: with co-medication): 200 nM
C[C@]12CCC(=O)C=C1CC[C@@H]1[C@@H]2[C@@H](O)C[C@@]2(C)[C@H]1CC[C@]2(O)C(=O)CO  Cmax (human, plasma; concentration not given, range of reported values): 188 to 614 nM
COc1cnc(-n2cnc(C)n2)c2[nH]cc(C(=O)C(=O)N3CCN(C(=O)c4ccccc4)CC3)c12  Cmax (human, plasma; concentration not given): 4000 nM
C[C@@H]1CS/C(=N\NC(=O)C(=O)[C@H](NC(=O)C2CCCCCC2)C2CCOCC2)N1C  Cmax (human; 300 mg once daily): 1600 nM
COc1ccccc1Oc1c(NS(=O)(=O)c2ccc(C(C)(C)C)cc2)nc(-c2ncccn2)nc1OCCO  Cmax (human; 125 mg, 7 days): 2800 nM
CCC(CC)COC(=O)[C@H](C)N[P@](=O)(OC[C@H]1O[C@@](C#N)(c2ccc3c(N)ncnn23)[C@H](O)[C@@H]1O)Oc1ccccc1  Cmax (human, plasma; intravenous infusion, 150 mg over 2 h, literature value): 230 nM
COc1cc2c(c(OC)c1OC)-c1ccc(OC)c(=O)cc1[C@@H](NC(C)=O)CC2  Cmax (human, plasma; concentration not given): 17 nM
COc1ccc2c(O[C@@H]3C[C@H]4C(=O)N[C@]5(C(=O)NS(=O)(=O)C6CC6)C[C@H]5/C=C\CCCCN(C)C(=O)[C@@H]4C3)cc(-c3nc(C(C)C)cs3)nc2c1C  Cmax (human patients; 150 mg per 24 h, recommended dose): 5600 nM
C=C[C@@H]1C[C@]1(NC(=O)[C@@H]1C[C@@H]2CN1C(=O)[C@H](C(C)(C)C)NC(=O)O[C@@H]1C[C@H]1CCCCCc1nc3ccc(OC)cc3nc1O2)C(=O)NS(=O)(=O)C1CC1  Cmax (human, HCV genotype 1 patients, plasma; oral, 100 mg once daily, steady state, mean): 150 nM
Cc1cnc(C(=O)N[C@H]2CCCCC/C=C\[C@@H]3C[C@@]3(C(=O)NS(=O)(=O)C3CC3)NC(=O)[C@@H]3C[C@@H](Oc4nc5ccccc5c5ccccc45)CN3C2=O)cn1  Cmax (human patients, plasma; dose not given, single or steady-state dosing, together with: with co-medication): 300 nM
COC(=O)[C@H](c1ccccc1)[C@H]1CCCCN1  Cmax (human, CES1 wild type, plasma; oral, 10 mg methylphenidate, single dose, median): 5 ng/mL
C#C[C@]1(O)CC[C@H]2[C@@H]3CCc4cc(O)ccc4[C@H]3CC[C@@]21C  Cmax (human, plasma; concentration not given, range of reported values): < 313 nM
NC(=O)c1ccc2c(c1O)[C@]13CCN(CC4CC4)[C@H](C2)[C@]1(O)CCC(=O)C3  Cmax (human; oral, 5 mg, day 1): 13.8 ng/mL
O=C(O)[C@H](c1ccccc1)[C@H]1CCCCN1  Cmax (human, by CES1 genotype, plasma; oral, 10 mg methylphenidate, single dose, median): 70.5 ng/mL

Excerpt of the above:
C=C[C@@H]1C[C@]1(NC(=O)[C@@H]1C[C@@H]2CN1C(=O)[C@H](C(C)(C)C)NC(=O)O[C@@H]1C[C@H]1CCCCCc1nc3ccc(OC)cc3nc1O2)C(=O)NS(=O)(=O)C1CC1  Cmax (human patients, plasma; dose not given, single or steady-state dosing, together with: with co-medication): 200 nM
C[C@]12CCC(=O)C=C1CC[C@@H]1[C@@H]2[C@@H](O)C[C@@]2(C)[C@H]1CC[C@]2(O)C(=O)CO  Cmax (human, plasma; concentration not given, range of reported values): 188 to 614 nM
